Experimental data gathered from unrelated publications.
Each numbered part is a random draw from the data of one study; scales do not carry over between parts. Positions count from the first letter of the parent shown.
Chain of UniProt Q9H2G2 (whole entry, looked up): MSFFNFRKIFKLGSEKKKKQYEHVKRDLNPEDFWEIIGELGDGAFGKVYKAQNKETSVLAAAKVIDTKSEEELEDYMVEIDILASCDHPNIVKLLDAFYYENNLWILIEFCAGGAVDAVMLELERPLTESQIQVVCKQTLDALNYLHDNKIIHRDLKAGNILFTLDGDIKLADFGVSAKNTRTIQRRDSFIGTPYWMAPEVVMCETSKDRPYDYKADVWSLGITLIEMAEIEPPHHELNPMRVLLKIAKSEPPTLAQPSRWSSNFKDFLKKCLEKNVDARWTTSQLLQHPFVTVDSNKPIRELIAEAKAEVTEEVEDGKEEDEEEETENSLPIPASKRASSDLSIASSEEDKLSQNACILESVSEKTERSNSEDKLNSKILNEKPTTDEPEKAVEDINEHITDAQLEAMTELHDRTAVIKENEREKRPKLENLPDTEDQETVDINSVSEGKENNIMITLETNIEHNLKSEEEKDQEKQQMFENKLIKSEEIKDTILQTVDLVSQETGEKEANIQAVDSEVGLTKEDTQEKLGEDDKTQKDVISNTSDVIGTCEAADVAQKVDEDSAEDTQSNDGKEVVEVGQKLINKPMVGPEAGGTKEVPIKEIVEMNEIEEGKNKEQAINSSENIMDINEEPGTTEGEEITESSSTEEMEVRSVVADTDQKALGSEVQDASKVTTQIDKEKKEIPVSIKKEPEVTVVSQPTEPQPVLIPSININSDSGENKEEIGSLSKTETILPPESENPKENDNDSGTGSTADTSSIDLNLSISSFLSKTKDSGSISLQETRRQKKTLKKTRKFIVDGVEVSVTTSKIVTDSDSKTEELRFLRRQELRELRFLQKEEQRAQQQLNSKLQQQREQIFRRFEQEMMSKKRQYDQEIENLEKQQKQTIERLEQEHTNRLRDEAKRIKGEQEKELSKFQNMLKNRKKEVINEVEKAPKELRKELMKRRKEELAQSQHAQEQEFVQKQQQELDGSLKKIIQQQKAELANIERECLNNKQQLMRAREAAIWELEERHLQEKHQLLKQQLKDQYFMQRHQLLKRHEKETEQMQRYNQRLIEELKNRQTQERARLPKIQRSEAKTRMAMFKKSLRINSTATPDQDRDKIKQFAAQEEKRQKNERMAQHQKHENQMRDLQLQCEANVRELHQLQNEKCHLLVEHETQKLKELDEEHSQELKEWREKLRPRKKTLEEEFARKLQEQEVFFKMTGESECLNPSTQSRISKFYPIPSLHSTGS
Chain of UniProt P08922 (whole entry, looked up): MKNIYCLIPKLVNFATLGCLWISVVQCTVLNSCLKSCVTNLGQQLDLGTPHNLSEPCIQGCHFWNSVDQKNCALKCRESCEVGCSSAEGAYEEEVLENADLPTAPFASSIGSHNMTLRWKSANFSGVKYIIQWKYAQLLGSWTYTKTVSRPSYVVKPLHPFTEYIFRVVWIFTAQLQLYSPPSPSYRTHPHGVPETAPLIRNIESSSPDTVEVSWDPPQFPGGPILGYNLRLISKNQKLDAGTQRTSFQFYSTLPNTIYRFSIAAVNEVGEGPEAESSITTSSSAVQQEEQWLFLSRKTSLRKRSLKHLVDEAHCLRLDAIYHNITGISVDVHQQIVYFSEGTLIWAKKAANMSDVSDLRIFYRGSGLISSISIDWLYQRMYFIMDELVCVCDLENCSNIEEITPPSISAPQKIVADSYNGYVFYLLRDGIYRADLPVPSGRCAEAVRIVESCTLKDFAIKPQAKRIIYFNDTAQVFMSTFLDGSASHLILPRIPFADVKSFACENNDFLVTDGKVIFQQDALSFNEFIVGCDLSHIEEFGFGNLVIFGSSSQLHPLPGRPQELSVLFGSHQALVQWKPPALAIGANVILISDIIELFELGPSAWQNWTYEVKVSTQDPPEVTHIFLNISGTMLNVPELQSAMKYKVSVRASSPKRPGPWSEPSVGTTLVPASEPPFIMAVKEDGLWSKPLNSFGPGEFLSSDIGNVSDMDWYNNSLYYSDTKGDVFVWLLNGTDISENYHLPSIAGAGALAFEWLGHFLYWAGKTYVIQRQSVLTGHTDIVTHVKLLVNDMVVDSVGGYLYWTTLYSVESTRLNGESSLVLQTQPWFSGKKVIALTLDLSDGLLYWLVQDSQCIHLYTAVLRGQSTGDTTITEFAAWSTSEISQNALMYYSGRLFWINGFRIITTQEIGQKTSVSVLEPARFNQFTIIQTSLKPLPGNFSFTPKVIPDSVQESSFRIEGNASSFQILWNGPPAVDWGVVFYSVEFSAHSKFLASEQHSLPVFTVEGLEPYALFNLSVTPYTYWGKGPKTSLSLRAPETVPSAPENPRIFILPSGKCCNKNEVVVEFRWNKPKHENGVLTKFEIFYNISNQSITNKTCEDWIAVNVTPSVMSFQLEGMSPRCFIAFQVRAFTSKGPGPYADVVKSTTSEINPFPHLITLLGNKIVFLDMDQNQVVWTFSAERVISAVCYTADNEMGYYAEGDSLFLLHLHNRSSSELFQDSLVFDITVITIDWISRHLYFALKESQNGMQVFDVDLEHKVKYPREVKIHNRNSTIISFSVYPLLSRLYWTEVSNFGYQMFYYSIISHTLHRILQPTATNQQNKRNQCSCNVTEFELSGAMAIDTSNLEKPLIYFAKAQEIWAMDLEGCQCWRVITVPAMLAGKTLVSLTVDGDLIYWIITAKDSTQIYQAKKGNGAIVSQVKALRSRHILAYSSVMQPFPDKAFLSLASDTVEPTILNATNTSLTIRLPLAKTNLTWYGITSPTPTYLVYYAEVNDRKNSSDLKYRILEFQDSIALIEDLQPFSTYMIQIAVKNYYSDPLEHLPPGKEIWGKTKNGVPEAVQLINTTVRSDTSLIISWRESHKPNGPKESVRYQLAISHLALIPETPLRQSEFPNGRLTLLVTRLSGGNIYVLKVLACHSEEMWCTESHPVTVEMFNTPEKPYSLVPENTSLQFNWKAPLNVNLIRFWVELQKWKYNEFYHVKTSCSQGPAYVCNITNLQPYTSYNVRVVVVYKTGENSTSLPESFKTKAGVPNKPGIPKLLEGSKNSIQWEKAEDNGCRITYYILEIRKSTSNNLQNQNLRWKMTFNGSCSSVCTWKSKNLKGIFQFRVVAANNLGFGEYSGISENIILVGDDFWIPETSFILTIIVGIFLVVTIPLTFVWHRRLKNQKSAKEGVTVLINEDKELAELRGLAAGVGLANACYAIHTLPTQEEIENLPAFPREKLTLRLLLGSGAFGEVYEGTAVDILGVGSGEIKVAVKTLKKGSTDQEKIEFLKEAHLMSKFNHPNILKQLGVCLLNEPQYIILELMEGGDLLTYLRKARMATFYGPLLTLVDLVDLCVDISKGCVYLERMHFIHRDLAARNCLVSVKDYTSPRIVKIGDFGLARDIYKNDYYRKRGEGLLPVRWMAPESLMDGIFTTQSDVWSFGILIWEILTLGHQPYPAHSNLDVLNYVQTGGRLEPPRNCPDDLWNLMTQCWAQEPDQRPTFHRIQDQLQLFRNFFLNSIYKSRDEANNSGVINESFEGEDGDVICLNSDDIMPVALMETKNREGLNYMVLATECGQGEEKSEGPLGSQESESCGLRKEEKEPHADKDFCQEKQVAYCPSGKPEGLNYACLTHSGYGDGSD
Chain of UniProt P53779 (whole entry, looked up): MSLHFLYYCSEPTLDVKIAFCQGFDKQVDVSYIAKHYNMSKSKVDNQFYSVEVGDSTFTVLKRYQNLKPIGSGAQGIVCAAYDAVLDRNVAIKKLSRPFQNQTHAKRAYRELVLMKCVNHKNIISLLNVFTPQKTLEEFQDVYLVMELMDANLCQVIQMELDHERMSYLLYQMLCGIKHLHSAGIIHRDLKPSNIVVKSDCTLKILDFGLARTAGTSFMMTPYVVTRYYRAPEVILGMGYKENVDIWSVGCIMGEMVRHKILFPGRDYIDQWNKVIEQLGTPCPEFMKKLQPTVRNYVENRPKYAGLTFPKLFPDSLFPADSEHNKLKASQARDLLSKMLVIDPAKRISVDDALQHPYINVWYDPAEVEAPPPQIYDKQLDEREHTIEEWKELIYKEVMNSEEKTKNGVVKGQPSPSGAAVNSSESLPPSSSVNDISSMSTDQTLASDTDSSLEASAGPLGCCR

Sample 1 — observed: binding; technique: phage display NGS; molecule type: peptide; concentration: concentration not given; baseline: beads alone
Target: UDP-N-acetylglucosamine--peptide N-acetylglucosaminyltransferase 110 kDa subunit (OGT, Homo sapiens, UniProt O15294)
Chain of UniProt O15294 (whole entry, looked up): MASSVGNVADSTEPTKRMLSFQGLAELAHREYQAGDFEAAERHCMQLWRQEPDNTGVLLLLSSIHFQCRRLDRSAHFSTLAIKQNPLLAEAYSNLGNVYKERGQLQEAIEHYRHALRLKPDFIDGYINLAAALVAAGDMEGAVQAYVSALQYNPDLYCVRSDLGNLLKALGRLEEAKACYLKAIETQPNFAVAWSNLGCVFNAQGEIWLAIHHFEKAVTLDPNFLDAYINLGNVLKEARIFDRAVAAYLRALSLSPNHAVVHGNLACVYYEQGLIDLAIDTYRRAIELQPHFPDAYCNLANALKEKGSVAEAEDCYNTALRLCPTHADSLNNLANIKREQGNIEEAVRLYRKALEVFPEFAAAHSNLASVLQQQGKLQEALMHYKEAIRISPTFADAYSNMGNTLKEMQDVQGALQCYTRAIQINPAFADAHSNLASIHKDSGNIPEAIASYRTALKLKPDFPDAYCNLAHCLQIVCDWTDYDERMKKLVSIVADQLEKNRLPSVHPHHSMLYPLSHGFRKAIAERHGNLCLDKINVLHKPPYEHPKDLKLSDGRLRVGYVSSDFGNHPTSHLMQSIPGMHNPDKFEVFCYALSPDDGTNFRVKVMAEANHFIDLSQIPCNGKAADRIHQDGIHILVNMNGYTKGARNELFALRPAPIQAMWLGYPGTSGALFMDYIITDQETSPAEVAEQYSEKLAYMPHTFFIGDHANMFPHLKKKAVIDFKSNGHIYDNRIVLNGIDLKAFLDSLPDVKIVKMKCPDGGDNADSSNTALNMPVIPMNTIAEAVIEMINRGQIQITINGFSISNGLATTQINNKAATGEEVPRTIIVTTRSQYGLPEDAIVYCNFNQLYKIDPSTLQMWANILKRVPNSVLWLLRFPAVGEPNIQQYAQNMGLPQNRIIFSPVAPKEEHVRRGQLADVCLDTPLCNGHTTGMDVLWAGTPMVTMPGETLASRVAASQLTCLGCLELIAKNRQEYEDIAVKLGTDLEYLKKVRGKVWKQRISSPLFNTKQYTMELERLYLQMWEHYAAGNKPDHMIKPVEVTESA
`TAPFYPPAYDI`: “enrichment fold change” 0.464.
`TAPFYPPAYFI`: “enrichment fold change” 0.689.
Under “enrichment fold change”, `TAPFYPPAYEI` is recorded as 0.929.

Sample 2 — observed: enzyme activity; action: inhibitor; concentration: 0.5 µM; baseline: control
Compound: N/C(=N\[N+](=O)[O-])N/N=C\c1ccc(-c2cccc([N+](=O)[O-])c2)o1
The remaining activity was 104% (NTRK3 (Homo sapiens, UniProt Q16288)).
It gave 87% for remaining activity (MAPK10 (Homo sapiens, UniProt P53779)).
For ROS1 (Homo sapiens, UniProt P08922): remaining activity read 97.5%.
The remaining activity was 101% (SLK (Homo sapiens, UniProt Q9H2G2)).

Sample 3 — observed: ligand displacement; concentration: 10 µM
Target: 5-hydroxytryptamine receptor 1A (HTR1A, Homo sapiens, UniProt P08908)
The inhibition of O[C@]1(C(F)(F)F)CCCC[C@H]1Nc1ccc(F)cc1 is reported as -1.95%.
CCOc1ccc(S(=O)(=O)Nc2ccc(Cl)cc2C#Cc2cnc(C(=O)O)cc2OC)c2ncccc12 has an inhibition of 18.6%.
CN(C)c1ncnc(-c2ccc3nc(Nc4cc(CN5CCN(C(=O)CC(F)(F)F)CC5)ccn4)[nH]c3c2)c1Cl gave an inhibition of 13.9%.
For N#CC1(c2ccccn2)CCN(Cc2cc(C(=O)O)c(=O)n3ccccc23)CC1, the inhibition was 21%.
With CC1CCN(c2ccnc(NCc3cn(C)cn3)n2)CC1 the inhibition was 30%.
For Nc1c(C(=O)NCc2ccc(C(=O)NCCCC3CCCCC3)cc2)cnn1-c1ccccc1, the inhibition was -1.43%.
CN(C)C(=O)c1sc2nc(N3CCC(S(C)(=O)=O)CC3)cc(C(F)(F)F)c2c1N has an inhibition of 40.6%.
The inhibition of O=C(Nc1cnc(Oc2ccc(F)cc2)nc1)N1CCc2ncccc2[C@@H]1c1ccc(F)cc1 is reported as -8.97%.
With C[C@H](c1ccnc(Nc2nc3ccc(-c4cc(N(C)C)ncn4)cc3[nH]2)c1)N1CCN(C(=O)CC(F)(F)F)CC1 the inhibition was 6.47%.
With CCC(=NO)C(C)=Cc1ccc(F)c(C)c1 the inhibition was 1.12%.
COc1cc(N[C@@H]2CCCC[C@]2(O)C(F)(F)F)ccc1F gave an inhibition of 6.99%.
Cc1cc(C)c(-n2ccn3nc(-c4cccnc4)cc23)cc1NC(=O)c1cc(C#N)cc(S(F)(F)(F)(F)F)c1 gave an inhibition of -6.68%.
With O=C(Nc1ccc(Oc2ccc(F)cc2)cc1)N1CCc2ncccc2[C@H]1c1ccc(F)cc1 the inhibition was -3.56%.

Sample 4 — target: vanadate, free oxyanion; technique: microfluidic competitive inhibition; matrix: in vitro, cell-free expressed; concentration: not given; direction: lower = stronger binding
Setting: derived from inhibition constants, unchanged parent 676 nM
Starting sequence: PafA, mature enzyme, eGFP fusion (Elizabethkingia meningoseptica, UniProt Q9KJX5); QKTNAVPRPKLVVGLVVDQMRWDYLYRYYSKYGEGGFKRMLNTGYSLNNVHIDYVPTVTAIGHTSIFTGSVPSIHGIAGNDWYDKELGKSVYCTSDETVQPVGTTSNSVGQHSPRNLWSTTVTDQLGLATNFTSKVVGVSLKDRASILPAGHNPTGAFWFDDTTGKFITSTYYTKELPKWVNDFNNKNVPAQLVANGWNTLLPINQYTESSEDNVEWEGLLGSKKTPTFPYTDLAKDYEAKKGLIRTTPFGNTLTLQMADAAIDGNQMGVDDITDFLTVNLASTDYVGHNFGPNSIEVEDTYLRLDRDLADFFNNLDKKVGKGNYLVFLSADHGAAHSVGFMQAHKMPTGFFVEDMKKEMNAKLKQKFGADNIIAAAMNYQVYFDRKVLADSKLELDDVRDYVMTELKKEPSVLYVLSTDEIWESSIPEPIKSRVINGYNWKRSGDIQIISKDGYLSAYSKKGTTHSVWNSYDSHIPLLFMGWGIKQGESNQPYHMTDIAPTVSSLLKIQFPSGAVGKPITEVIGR
`D272V`: “oxyanion analog dissociation constant” 728 nM.
Under “oxyanion analog dissociation constant”, `Y24G` is recorded as 1.3 µM.
Under “oxyanion analog dissociation constant”, `Y286G` is recorded as 1.19 µM.
`T405V`: “oxyanion analog dissociation constant” 581 nM.
For `K461V`, “oxyanion analog dissociation constant” read 683 nM.
For `K318G`, “oxyanion analog dissociation constant” read 615 nM.
`K367G`: “oxyanion analog dissociation constant” 610 nM.
`L254V` — result for “oxyanion analog dissociation constant”: 694 nM.
